Results pooled from the literature.
Each numbered part is a random draw from the data of one study; scales do not carry over between parts. Positions count from the first letter of the parent shown.

Sample 1 — technique: RNA Bind-n-Seq; molecule type: RNA; sample: in vitro; tested at: not given; reference: input RNA pool; reading: higher = stronger binding
Target: RING finger protein unkempt homolog, zinc fingers 1-6, GST-SBP tag (UNK, Homo sapiens, UniProt Q9C0B0, residues 30-357)
Sequence of UniProt Q9C0B0 (30-357, looked up): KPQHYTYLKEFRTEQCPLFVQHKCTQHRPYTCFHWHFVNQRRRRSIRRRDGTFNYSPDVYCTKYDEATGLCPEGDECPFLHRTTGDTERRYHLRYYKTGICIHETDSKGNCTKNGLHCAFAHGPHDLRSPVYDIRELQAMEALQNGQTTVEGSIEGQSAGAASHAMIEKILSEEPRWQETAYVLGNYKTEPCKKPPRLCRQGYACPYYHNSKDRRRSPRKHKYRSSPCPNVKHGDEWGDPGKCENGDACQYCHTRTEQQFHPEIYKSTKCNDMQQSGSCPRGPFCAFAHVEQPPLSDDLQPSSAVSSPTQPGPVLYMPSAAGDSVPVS
Notes: RNA with constant flanks, human-mouse chimeric sites, ends assumed
Shared flanks, not repeated: GGGAGUUCUACAGUCCGACGAUC … CAACAGAGGAUUGAGCAUCA
Strand | bound/input enrichment [ratio]
UAAAUUAGGGCUGCCGUUUUCUGUUUCGCCCUGAGCUGCAGACAGCUAGAAGAUUUUAUCUAGCUUAUACAAGGCUGCUGGUGUUCCCUCUUUUUUUCCACGAGGGUGUUUUUGGCUGCA | 0.52
CGGAGCCCUCCUCUCCCACAGGCCCAAGAUAUAACCCACCAGUGCCUUUUGUCUUCCUGUCAGCUCUGUCAAUCACGCCUGUCCUCUGUCCCUCUCACCAAGUGCCCAAAGUGGGGAGGG | 0.722
CAGGGCAUCAUCUCUCGUGCUGUUAGACACCUGUUCAAGAGUAUUGAUGAGAAAAAGCACAUAGCAAUUAAAAACGGGCUGCCCCCUCCUGAAUUCAAAGUGAAUGCCCAGUUCCUAGAG | 1.09
GCAGGAUCUUCUAAGUACCAGUGGGACAUUAUGAAAUCCCUUGGGCUCUCUGAUGACGACAUAGUGAAGUUUUCUGAAGCAGAGCACUGGCUUGAUUAUUUCCCGCCACUGGCUAUUCAG | 0.113
CGGAAGUUCUUGAUUUAGUGGCUGGGCCUUUUCUUUCUUUCCUUUAGGAAAAGCCUAAAGAUUAGGUUGUAAGAAAAACAGAAGCCAUGUUUCGAAGACCUGUGUUACAGGUAUUUCGUC | 0.201

Sample 2 — technique: RNA Bind-n-Seq; molecule type: RNA; sample: in vitro; tested at: 1 µM; notes: whole 134-nt RNA, ends assumed; with: 150 mM KCl; reference: input library; reading: higher = stronger binding
Target: Ras GTPase-activating protein-binding protein 1, RRM domain (G3BP1, Homo sapiens, UniProt Q13283)
Sequence of UniProt Q13283 (whole entry, looked up): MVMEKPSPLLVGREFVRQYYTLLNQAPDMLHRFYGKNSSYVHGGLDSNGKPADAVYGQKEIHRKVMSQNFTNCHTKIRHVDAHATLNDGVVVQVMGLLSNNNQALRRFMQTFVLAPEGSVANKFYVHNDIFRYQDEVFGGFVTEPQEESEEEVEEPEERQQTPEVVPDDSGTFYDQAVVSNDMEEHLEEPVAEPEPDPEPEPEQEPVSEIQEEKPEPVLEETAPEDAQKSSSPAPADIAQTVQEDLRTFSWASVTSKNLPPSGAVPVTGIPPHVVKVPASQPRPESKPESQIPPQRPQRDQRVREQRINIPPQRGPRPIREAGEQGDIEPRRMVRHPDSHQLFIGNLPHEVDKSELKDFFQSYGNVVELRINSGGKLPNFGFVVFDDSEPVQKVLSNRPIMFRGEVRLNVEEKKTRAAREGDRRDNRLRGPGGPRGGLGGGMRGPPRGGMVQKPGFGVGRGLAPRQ
Shared flanks, not repeated: GGGAGUUCUACAGUCCGACGAUC … UGGAAUUCUCGGGUGUCAAGG
Strand | log2 enrichment
GCAGGCAGUAAAAACAAAUGGAAAUGCUUCGGAUAGUGGCAGGGGUGGGGGUUGCUAAGGAAAGGGUGGGAUGGGAGUGGGUAAAGAGUU | 1.66
CCUGUGCUACACAUCGUAUGUACCGAAUCGGGGAAAAAAAGGGGAAAAAGGGGAAAGGGGAAAGUAUUAUGUUACGCCGUUCGGAUCUGC | 0.802
AAGUCCUGUGCUACACAUCGUAUGUACCGAAUCGGGCCCCGGCCCCGGGGCCCCGGAAAGUAUUAUGUUACGCCGUUCGGAUCUGCACUU | -0.726
CAGCAGCAGAGUGAGUGGAUUUUAUUUUUCGUUAUUGUUGGUGGUUUAAAAAAUUCCCCCCAUGUAAUUAUUGUGAACACCUUGCUUUGU | -0.146
GCAGGAAGUAAAAACAAAUGGAAAUGCUUCGGAUAGUGGCAGGGGUGGGGGUUGCUAAGGAAAGGGUGGGAUGUGAGUGGGUAAAGAGUU | 1.35
AGUCCUGUGCUACACAUCGUAUGUACCGAAUCAAAUUUAAAUUUUUUUAAAUUUAAAAAAGUAUUAUGUUACGCCGUUCGGAUCUGCACU | -0.984
AGUCCUGUGCUACACAUCGUAUGUACCGAAUCGGGGAAAAGGGGAAAAGGAAAAGGGGAAAGUAUUAUGUUACGCCGUUCGGAUCUGCAC | 0.111
UAACUUUAGAGGAGGAUCUGAUGGAUAUGGCAGAGGACGUGGAUUUGGGGAUGGCUAUAAUGGGUAUGGAGGAGGACCUGGAGGUGGCAA | -0.521
AGUCCUGUGCUACACAUCGUAUGUACCGAAUCGGUUUUUUUGGAAAGGAAAAAAAGGAAAGUAUUAUGUUACGCCGUUCGGAUCUGCACU | -0.125

Sample 3 — target: CCND3, cyclin fold, Cln2 fusion (human); technique: yeast growth competition, sequencing; sample: yeast; notes: weak parent motif; reference: not given; reading: higher = stronger binding
Parent: RBL1 docking peptide (human); GSAKRRLFGEDPP
Substitution | normalised enrichment score
GSAKRRLFEEDPP [G9E] | 0.125
GTAKRRLFGEDPP [S2T] | 0.0684
GEAKRRLFGEDPP [S2E] | 0.102
GYAKRRLFGEDPP [S2Y] | 0.0887
GSTKRRLFGEDPP [A3T] | 0.177
GSAKRDLFGEDPP [R6D] | 0.00918
GSAKRRLFGEDPN [P13N] | 0.135
GSAKRRLFGEAPP [D11A] | 0.179
GDAKRRLFGEDPP [S2D] | 0.0479
GSAKRRLFGEDHP [P12H] | 0.0967
GSAKRRLFGEKPP [D11K] | 0.162
GSAKARLFGEDPP [R5A] | 0.161
GSAKRRLFGEDPR [P13R] | 0.121
GSAKRRLFGEDIP [P12I] | 0.126
GSAKRRLFGEDRP [P12R] | 0.167
NSAKRRLFGEDPP [G1N] | 0.0993
GSAKRRSFGEDPP [L7S] | -0.0156

Sample 4 — target: JUN, bZIP domain (human); technique: DHFR protein complementation; sample: yeast; reference: wild-type JUN-FOS pair; reading: higher = stronger binding
Notes: single substitutions, most at no-binding floor
Parent: JUN, bZIP domain (human); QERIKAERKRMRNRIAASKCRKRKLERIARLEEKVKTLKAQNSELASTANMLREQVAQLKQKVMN; partner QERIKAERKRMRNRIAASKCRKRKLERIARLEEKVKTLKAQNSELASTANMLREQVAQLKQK
Substitution | binding fitness [natural log]
S47T | -0.192
L45Y | -0.934
V56S | -1.17
A29K | -0.201
K34Q | 0.0244
K36L | -0.353
E54V | -0.578
E54H | -0.5
A46V | -0.173
S43E | -0.0145
M51R | -0.184

For quick reference, copied from above (sample 3):
Substitution | normalised enrichment score
GSAKRRLFGEAPP [D11A] | 0.179
GSAKRRLFGEKPP [D11K] | 0.162
GSAKRRLFGEDRP [P12R] | 0.167
GSAKARLFGEDPP [R5A] | 0.161
GSAKRRLFGEDPR [P13R] | 0.121
